Measured values collected from several papers.
Numbered parts are unrelated; each lists some results of a single study. Positions count from the first letter of the parent shown.

Block 1
Target: Fragile X messenger ribonucleoprotein 1, C-terminal low-complexity region (Fmr1, Mus musculus, UniProt P35922)
Technique: RNA Bind-n-Seq
Form: RNA
Matrix: in vitro
Tested at: 200 nM
Notes: whole 134-nt RNA, ends assumed
Together with: 150 mM LiCl
Baseline: input library
Direction: higher = stronger binding
All molecules: 7-deaza-guanosine replaces G
`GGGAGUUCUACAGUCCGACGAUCAAGUCCUGUGCUACACAUCGUAUGUACCGAAUCGGGAAAAAGGGUGGGAAAAAGGGAAAGUAUUAUGUUACGCCGUUCGGAUCUGCACUUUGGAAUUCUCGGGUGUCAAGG` gave a log2 enrichment of -1.13.
For `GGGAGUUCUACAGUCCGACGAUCCACAGACAACACGCACCCACACAGACACAGAGGGAAGGGGUUGGGAUGGGGACAGGGUGCACAGCAGGGCGCGGUAGGACCCCAGCCCCUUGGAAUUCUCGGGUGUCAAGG`, the log2 enrichment was -0.142.
`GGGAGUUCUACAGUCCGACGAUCUGGGAGGUGGAUUUUGUUUAUUUUUUUAGCUCAUUUCCAGGGGUGGGAAUUUUUUUUUAAUAUGUGUCAUGAAUAAAGUUGGUUUUGAAAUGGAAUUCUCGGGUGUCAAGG` gave a log2 enrichment of 0.397.
With `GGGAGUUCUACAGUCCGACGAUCUAACUUUAGAGGAGGAUCUGAUGGAUAUGGCAGUGGACGUCGAUUUGGGGAUGGCUAUAAUGGGUAUGGAGGAGGACCUGGAGGUGGCAAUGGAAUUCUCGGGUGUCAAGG` the log2 enrichment was 0.437.
With `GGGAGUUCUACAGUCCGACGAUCAAGUCCUGUGCUACACAUCGUAUGUACCGAAUCGGGUUUGGGGUUUGGGUUUGGGGAAAGUAUUAUGUUACGCCGUUCGGAUCUGCACUUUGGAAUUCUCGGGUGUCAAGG` the log2 enrichment was -1.18.
`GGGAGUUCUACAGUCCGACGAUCCAAGUCCUGUGCUACACAUCGUAUGUACCGAAUCGGUUUGGAAAAAGGUUUUUGGAAAGUAUUAUGUUACGCCGUUCGGAUCUGCACUUCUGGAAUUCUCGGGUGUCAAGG` has a log2 enrichment of -2.1.
The log2 enrichment of `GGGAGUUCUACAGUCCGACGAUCCUCAAGUCCUGUGCUACACAUCGUAUGUACCGAAUCGGGAGGGUGGGUUUGGGAAAGUAUUAUGUUACGCCGUUCGGAUCUGCACUUCCAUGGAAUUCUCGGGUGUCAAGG` is reported as -0.777.
`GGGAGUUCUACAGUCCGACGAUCCUGUGCUACACAUCGUAUGUACCGAAUCGGGGUUUUUGGGGUUUUUGGGGUUUUUUUGGGGAAAGUAUUAUGUUACGCCGUUCGGAUCUGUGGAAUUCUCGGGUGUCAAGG` has a log2 enrichment of 1.69.
For `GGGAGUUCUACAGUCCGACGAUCCAAGUCCUGUGCUACACAUCGUAUGUACCGAAUCGGGAAAGGGUUUGGGAAAGGGAAAGUAUUAUGUUACGCCGUUCGGAUCUGCACUUCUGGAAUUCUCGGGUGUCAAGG`, the log2 enrichment was -1.19.
`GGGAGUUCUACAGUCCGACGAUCCACAGACAACACGCACUCACACAGACACAGAGGGAAGGGGUUGGGAUGGGGACAGGGUGCACAGCAGGGCGGGGUAGGACCCCAGCCCCUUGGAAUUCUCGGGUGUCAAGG` gave a log2 enrichment of 0.485.
`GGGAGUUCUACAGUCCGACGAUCUGGGAGGUGGAUUUUGUUUAUUUUUUUAGCUCAUUUCCAGGGGUGGGAAUUUUUUUUUAAUAGGUGUCAUGAAUAAAGUUGUUUUUGAAAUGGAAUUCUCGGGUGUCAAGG` gave a log2 enrichment of 0.25.

Block 2
Target: RNA binding protein fox-1 homolog 2, RRM domain, GST-SBP tag (RBFOX2, Homo sapiens, UniProt O43251-10, residues 100-194)
Technique: RNA Bind-n-Seq
Form: RNA
Matrix: in vitro
Tested at: 365 nM
Notes: natural RNA segment, single round, ends assumed
Baseline: no-protein control
Direction: higher = stronger binding
Residues (chain): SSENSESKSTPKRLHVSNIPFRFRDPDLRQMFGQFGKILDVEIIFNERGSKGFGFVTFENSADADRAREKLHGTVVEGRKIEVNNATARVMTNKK
For `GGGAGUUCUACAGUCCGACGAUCAUUGGAACUUUUUGAAGUGUGUGGGACUAUGAGAAGAAUUUCUUACUAACAUUUCCAAUAUCUGUAAGAUACCAAAGGACUGAGACUAACUGAUCUUUUAAUGGAAUUUCUGGAAUUCUCGGGUGCCAA`, “RBNS enrichment (R)” read 0.61.
`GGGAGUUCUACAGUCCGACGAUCUCUUCGAGGUGGAUCACAGAGGCUUCUUCAGAUCAGUGCUUGAGUUUGGGGAAUGCGGCCGCAUUCCCUGAGUCACCAGGAAUGUUAAAGUCAGUGGGAACGUGACUGCCUGGAAUUCUCGGGUGCCAA` — result for “RBNS enrichment (R)”: 0.668.
`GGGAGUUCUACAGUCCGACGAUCAGGGCUAUAUUUUUCUAGCAUUUGACCUACUUGCGACUUGAUACAGAUUGCAUAGCCUGAAAGAGGCUUCUGUGGCCACCUGGGAGUCUCAGUGUUUUCUUCAAAACUUCUGGAAUUCUCGGGUGCCAA` — result for “RBNS enrichment (R)”: 0.556.
`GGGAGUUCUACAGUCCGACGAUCGAUUUCCAGGAUGAGUCAGGGUGUGCUGGGCCCUCCAGGAUUUGAGAGAGGGAGAGAAGGCCCUUGCCACGUCCGGGGUGCAGGGUCUACCCACAGAACACUGUGAGUGGUGGAAUUCUCGGGUGCCAA` — result for “RBNS enrichment (R)”: 0.403.
For `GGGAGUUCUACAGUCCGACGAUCAAUUUUUCUGUAUCCUGGAACCAUUACAUGAUCAUGUUGCUUUGAAGAUCUUUUUAUGCCACUGUUUCUGCUGUCUUGGUUCUGACACCCCUGUCUGGUGAUAUGCUAUAUGGAAUUCUCGGGUGCCAA`, “RBNS enrichment (R)” read 0.577.
For `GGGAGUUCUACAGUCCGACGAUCAUGGGGCACACGCCCCAAGGGACAUGAUCCUCUCCUUAGUCUUAGCUCAUGGGGCUCUUUAUAAGGAGUUGGGGGGUAGAGGCAGGAAAUGGGAACCGAGCUGAAGCAGAUGGAAUUCUCGGGUGCCAA`, “RBNS enrichment (R)” read 0.613.
For `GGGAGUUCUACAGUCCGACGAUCCUUUAACCUCCCUUCUAGCCCACCACCAACCAGAGAUAGUGGGAAAGAAAGGAUACAGGGGAAGUGGACCUGUUUAGAAAUGGUUCUUUGGAGCAGAUCCUGUCUGCAUUUGGAAUUCUCGGGUGCCAA`, “RBNS enrichment (R)” read 0.384.
For `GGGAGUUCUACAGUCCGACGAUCCGUUGAACUUGGCUGUUGUUACAGGAAAAUGAUGGCAUCAACAGGUCUUUGAUGGUGGUGGAGCAUAUCAGAACACAUAAGGAACUGUAGCCCAGAUUUAUUUCAAUUCAUGGAAUUCUCGGGUGCCAA`, “RBNS enrichment (R)” read 0.424.
Under “RBNS enrichment (R)”, `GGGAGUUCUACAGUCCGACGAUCACGUGCGCAGGAAGGGCUCCUCUUAGAGAAGCAGCCAAACUGUGAAGCACUAAGCUGACCCUGCUUCAAGCAAUUUUGUUUUUACAACUGUUCCUUUCACAAGCAAGCCUUGGAAUUCUCGGGUGCCAA` is recorded as 0.304.
Under “RBNS enrichment (R)”, `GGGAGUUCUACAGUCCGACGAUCCUGUCUCCUGCCUUAGCAGGCCUAUCAAUUUCUUGUCAAUCUCUUUUUUUCCUUGCUCACAUUAAAAGGAAGCAUGGAGUUCUAAUGCUCCCAUAAACUAUGUAUUUUGGUGGAAUUCUCGGGUGCCAA` is recorded as 0.736.
For `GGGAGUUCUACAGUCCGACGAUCAAAGGAAAGAAAAGGAAUUGGUGUGAAGAGAGAAGUUAGAGAAGGGAAAUGCAGUGAAUUACUAUCUGUGUCCAUCAGGAAGUUUGUCCUGUUAACCAAAUGGUUACUGCUGGAAUUCUCGGGUGCCAA`, “RBNS enrichment (R)” read 1.61.
`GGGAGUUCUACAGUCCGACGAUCUCCAGUAAUGAAAGCAGCACCAUAUCCUAAUCUAAUGUCAGCUUCGAGAAUGAAGACUGCAGUCAGGAUCAAAUCAAGUCACAGAAGCCAUAUUCAUGCAGGUGCUAACCUGGAAUUCUCGGGUGCCAA`: “RBNS enrichment (R)” 0.897.

Block 3
Target: CCNE1, cyclin fold, Cln2 fusion (human)
Technique: yeast growth competition, sequencing
Matrix: yeast
Notes: strong parent motif
Baseline: not given
Direction: higher = stronger binding
Parent: SCAPER docking peptide (human); SNARRSLNFGGST
For `S6F`, “normalised enrichment score” read 2.14.
`S12M`: “normalised enrichment score” 0.253.
`S6T` — result for “normalised enrichment score”: 1.96.
For `R4G`, “normalised enrichment score” read 0.354.
Under “normalised enrichment score”, `L7M` is recorded as 0.398.
For `N8K`, “normalised enrichment score” read 1.21.
For `T13N`, “normalised enrichment score” read 1.24.
For `R4C`, “normalised enrichment score” read 0.543.
`T13A` — result for “normalised enrichment score”: 0.505.
`L7G`: “normalised enrichment score” -0.597.
`S12V`: “normalised enrichment score” 0.5.
Under “normalised enrichment score”, `T13Q` is recorded as 0.922.
Under “normalised enrichment score”, `T13M` is recorded as 0.929.
`S6H`: “normalised enrichment score” 1.68.

Block 4
Target: Histone acetyltransferase KAT6A, winged helix 1, GST fusion (KAT6A, Homo sapiens, UniProt Q92794, residues 1-85)
Technique: protein binding microarray
Form: double-stranded DNA, one strand shown
Matrix: in vitro
Tested at: not given
Notes: 8-mer, flanks averaged, mean of 2 arrays, mostly near background
Baseline: not given
Direction: higher = stronger binding
Target sequence (chain): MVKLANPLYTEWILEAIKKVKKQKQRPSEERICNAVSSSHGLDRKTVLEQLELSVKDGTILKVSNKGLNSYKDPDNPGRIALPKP
`AATCATAC` has an E-score of -0.0357.
With `AGTTCGCA` the E-score was -0.0238.
`AATTCGCC` has an E-score of -0.00444.
The E-score of `AAGGCCTA` is reported as -0.261.
For `CACAACAC`, the E-score was -0.0785.
`AGGTACCG` has an E-score of 0.218.
`AATTTGAG` has an E-score of -0.187.
For `GCGGCCAC`, the E-score was 0.343.
With `ACACGACC` the E-score was -0.0195.
`AGGAGCAT` gave an E-score of -0.174.
For `ATTGTTCG`, the E-score was -0.00143.
`AGCTAACA` gave an E-score of -0.161.
For `ATTGTCAC`, the E-score was -0.104.
For `TACGGAAA`, the E-score was 0.218.
With `GGATCAGA` the E-score was -0.178.
The E-score of `ACCACTGG` is reported as -0.116.
`ATACTGGC` gave an E-score of -0.165.
With `CATAGTAC` the E-score was 0.00458.
The E-score of `AGGCAACA` is reported as -0.188.
`GTCATGTA` has an E-score of 0.00194.

Block 5
Target: CEBPB, bZIP domain (human)
Technique: DHFR protein complementation
Matrix: yeast
Notes: single substitutions, most at no-binding floor
Baseline: wild-type JUN-FOS pair
Direction: higher = stronger binding
Parent: JUN, bZIP domain (human); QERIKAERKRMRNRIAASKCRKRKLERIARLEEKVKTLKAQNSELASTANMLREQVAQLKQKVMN; partner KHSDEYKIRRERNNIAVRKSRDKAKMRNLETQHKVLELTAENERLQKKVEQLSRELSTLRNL
For `Q41K`, the binding fitness was -1.38 natural log.
`A49V` gave a binding fitness of -1.23 natural log.
With `A46R` the binding fitness was -1.14 natural log.
`I28F` has a binding fitness of -1.34 natural log.
`R53T` gave a binding fitness of -1.05 natural log.
`M51G` gave a binding fitness of -1.35 natural log.
`A40L` has a binding fitness of -1.41 natural log.
`Q55K` has a binding fitness of -1.12 natural log.
With `S43Q` the binding fitness was -1.08 natural log.
`M51L` gave a binding fitness of -1.27 natural log.
`T37G` gave a binding fitness of -1.4 natural log.
With `A29W` the binding fitness was -1.45 natural log.
For `L31W`, the binding fitness was -1.38 natural log.
`T48V` has a binding fitness of -1.33 natural log.
With `A46T` the binding fitness was -1.28 natural log.
`A57H` gave a binding fitness of -1.37 natural log.
`E33S` gave a binding fitness of -1.4 natural log.

Block 6
Target: Max-binding protein MNT, bHLH-zipper, MAX partner unstated (MNT, Homo sapiens, UniProt Q99583, residues 220-300)
Technique: protein-binding microarray
Form: double-stranded DNA, one strand shown
Matrix: in vitro
Tested at: not given
Notes: k-mer, scored over probes, only values ≥0.25
Direction: higher = stronger binding
Construct (chain): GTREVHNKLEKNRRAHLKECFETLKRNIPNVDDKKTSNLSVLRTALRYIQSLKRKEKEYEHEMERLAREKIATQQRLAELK
For `AGCACGAT`, the E-score was 0.274.
`AATGTGCT` gave an E-score of 0.261.
The E-score of `CATGTGGA` is reported as 0.457.
The E-score of `GGCACGCA` is reported as 0.25.
`CGTGGTTC` gave an E-score of 0.341.
`AAGCATGG` gave an E-score of 0.425.
With `CATGGGAG` the E-score was 0.264.
`AGCACACG` gave an E-score of 0.343.
The E-score of `CGCCCCTC` is reported as 0.261.
For `ACATGTCC`, the E-score was 0.349.
`TAGGGGCA` has an E-score of 0.26.
The E-score of `AGCGTGGC` is reported as 0.387.

Repeated from above (block 3):
`S12M`: “normalised enrichment score” 0.253.
Under “normalised enrichment score”, `T13Q` is recorded as 0.922.
Under “normalised enrichment score”, `L7M` is recorded as 0.398.
`T13A` — result for “normalised enrichment score”: 0.505.
For `T13N`, “normalised enrichment score” read 1.24.
`S6H`: “normalised enrichment score” 1.68.
For `R4G`, “normalised enrichment score” read 0.354.
